Experimental data pooled from the literature.
Lines come from different studies, so protocols differ. Several values in a cell are separate wells, animals, samples, runs or records. ± gives the spread as reported.
TDP1: Tyrosyl-DNA phosphodiesterase 1 (TDP1, Homo sapiens, UniProt Q9NUW8)
Chain of UniProt Q9NUW8 (whole entry, looked up): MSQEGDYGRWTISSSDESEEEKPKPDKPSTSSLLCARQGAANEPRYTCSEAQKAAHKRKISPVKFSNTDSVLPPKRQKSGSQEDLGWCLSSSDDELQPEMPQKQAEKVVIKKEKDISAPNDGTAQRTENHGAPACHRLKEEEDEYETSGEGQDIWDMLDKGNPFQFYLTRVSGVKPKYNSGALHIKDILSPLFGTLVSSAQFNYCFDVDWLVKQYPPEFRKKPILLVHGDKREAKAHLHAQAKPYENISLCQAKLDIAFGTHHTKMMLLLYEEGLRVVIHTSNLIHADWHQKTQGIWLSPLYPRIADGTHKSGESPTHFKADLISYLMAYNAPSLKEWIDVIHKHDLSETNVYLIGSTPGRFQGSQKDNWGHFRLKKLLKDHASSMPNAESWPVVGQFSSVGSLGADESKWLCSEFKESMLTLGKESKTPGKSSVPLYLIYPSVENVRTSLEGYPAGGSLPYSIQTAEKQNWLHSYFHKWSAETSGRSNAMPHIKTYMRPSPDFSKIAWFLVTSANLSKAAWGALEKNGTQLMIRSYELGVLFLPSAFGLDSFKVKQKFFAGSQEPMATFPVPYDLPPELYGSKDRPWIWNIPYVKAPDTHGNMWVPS

Structure (SMILES) = CC(C)OCCOCc1ccc(OCC(O)CN(N=O)C(C)C)cc1 (centres unmarked); target or system = Salmonella typhimurium; assay = Ames test; system = TA1535; setting = 1580 µg/plate, without metabolic activation; how to read = baseline: solvent control; measurement = revertant fold increase; value = 0.6 fold
Structure (SMILES) = Nc1nc2cc(C(=O)c3ccc(F)cc3)ccc2[nH]1; target or system = Salmonella typhimurium; assay = Ames preincubation test; system = TA100; setting = 78.0 µg per plate, 3 days, without S9, lawn reduction; measurement = revertants; value = 106 revertants per plate
Structure (SMILES) = CC(C)(C)NCC(SS(=O)(=O)O)c1ccccc1 (centres unmarked); target or system = Schistosoma mansoni; assay = perfusion day 44; system = infected Swiss Webster mice; setting = 600 mg/kg single dose, dosed day 1 post-infection; measurement = body weight; value = 31 g and 32.9 g and 32.3 g
Structure (SMILES) = Cn1nnnc1NCc1nn(C)c2nc(N)[nH]c(=O)c2c1=O; target or system = Escherichia coli; assay = LC-MS/MS; system = BW25113; setting = 100 µM, 10 min, 37 °C; measurement = intracellular accumulation; value = 7.48 ± 0.3 µM
Structure (SMILES) = COC(=O)Nc1nc2cc(C(O)c3ccc(F)cc3)ccc2[nH]1 (centres unmarked); target or system = Escherichia coli; assay = Ames preincubation test; system = WP2 uvrA; setting = 109.4 µg/plate, without S9; measurement = revertants; value = 37.3 revertants/plate
Structure (SMILES) = Nc1nc2[nH]nc(CCC(=O)O)c(=O)c2c(=O)[nH]1; target or system = Escherichia coli; assay = LC-MS/MS; system = BW25113; setting = 100 µM, 10 min, 37 °C; measurement = intracellular accumulation; value = 1.38 ± 0.6 µM
Structure (SMILES) = O=C(O)CCCOc1ccc(O)cc1-c1cc(-c2ccccc2C(F)(F)F)n(-c2ccccc2)n1; target or system = Escherichia coli; assay = Ames reverse mutation test; system = WP2 uvrA; setting = concentration not given, without S9; measurement = mutagenicity; value = negative
Structure (SMILES) = CCOC(=O)Cc1n[nH]c2nc(N)[nH]c(=O)c2c1=O; target or system = Escherichia coli; assay = LC-MS/MS; system = BW25113; setting = 100 µM, 10 min, 37 °C; measurement = intracellular accumulation; value = 6.76 ± 1 µM
Structure (SMILES) = O=C1NC2(CC2)COc2ncc(F)cc2[C@H]2COCCN2c2ccn3ncc1c3n2; target or system = Salmonella typhimurium; assay = Ames test; system = TA100; setting = 50 µg/plate, 48 h, added: without S9; measurement = revertant colonies; value = 73 ± 8 revertants/plate
Structure (SMILES) = COC(=O)CC(C)c1n[nH]c2nc(N)[nH]c(=O)c2c1=O (centres unmarked); target or system = Escherichia coli; assay = LC-MS/MS; system = BW25113; setting = 100 µM, 10 min, 37 °C; measurement = intracellular accumulation; value = 7.35 ± 1.4 µM
Structure (SMILES) = COc1cccc2cc(C=NOCc3ccc(-c4nc5cc(-c6ccccc6)ccn5c4Nc4ccc(C(=O)O)cc4)cc3)oc12; target or system = TDP1; assay = enzyme activity, inhibitor; setting = 100 µM, unpurified compound; measurement = inhibition; value = 64.5%
Structure (SMILES) = CCN(CC)CC#CCNc1ccnc2cc(Cl)ccc12; target or system = Salmonella typhimurium; assay = mini-Ames test; system = TA1535; setting = 1000.0 µg/well, without S9; measurement = revertants; value = 1 revertants/well and 4 revertants/well
Structure (SMILES) = CN(C)C=C(C=NOCc1ccc2nc(-c3ccccc3)c(Nc3ccc(C(=O)O)cc3)n2c1)c1ccccc1[N+](=O)[O-] (mixture of isomers); target or system = TDP1; assay = enzyme activity, inhibitor; setting = 100 µM, unpurified compound; measurement = inhibition; value = -0.4%
Structure (SMILES) = O=C1C2CC3CC1CC(C(=O)N1CCN(c4ccc([N+](=O)[O-])c5ncccc45)CC1)(C3)C2; target or system = Salmonella typhimurium; assay = Ames test; system = TA98; setting = 0.05 µg/well, without S9; measurement = mean revertant colonies; value = 5 colonies/well

Some of these lines once more:
Structure (SMILES) = CC(C)(C)NCC(SS(=O)(=O)O)c1ccccc1 (centres unmarked); target or system = Schistosoma mansoni; assay = perfusion day 44; system = infected Swiss Webster mice; setting = 600 mg/kg single dose, dosed day 1 post-infection; measurement = body weight; value = 31 g and 32.9 g and 32.3 g
Structure (SMILES) = Cn1nnnc1NCc1nn(C)c2nc(N)[nH]c(=O)c2c1=O; target or system = Escherichia coli; assay = LC-MS/MS; system = BW25113; setting = 100 µM, 10 min, 37 °C; measurement = intracellular accumulation; value = 7.48 ± 0.3 µM
